{"data": "Measured values gathered from unrelated publications", "note": "Every numbered part comes from another study and shows a few of its results, in no order. “And” joins repeats or separate records; there may be more than shown.", "UniProt P52333, sequence (whole entry, looked up)": "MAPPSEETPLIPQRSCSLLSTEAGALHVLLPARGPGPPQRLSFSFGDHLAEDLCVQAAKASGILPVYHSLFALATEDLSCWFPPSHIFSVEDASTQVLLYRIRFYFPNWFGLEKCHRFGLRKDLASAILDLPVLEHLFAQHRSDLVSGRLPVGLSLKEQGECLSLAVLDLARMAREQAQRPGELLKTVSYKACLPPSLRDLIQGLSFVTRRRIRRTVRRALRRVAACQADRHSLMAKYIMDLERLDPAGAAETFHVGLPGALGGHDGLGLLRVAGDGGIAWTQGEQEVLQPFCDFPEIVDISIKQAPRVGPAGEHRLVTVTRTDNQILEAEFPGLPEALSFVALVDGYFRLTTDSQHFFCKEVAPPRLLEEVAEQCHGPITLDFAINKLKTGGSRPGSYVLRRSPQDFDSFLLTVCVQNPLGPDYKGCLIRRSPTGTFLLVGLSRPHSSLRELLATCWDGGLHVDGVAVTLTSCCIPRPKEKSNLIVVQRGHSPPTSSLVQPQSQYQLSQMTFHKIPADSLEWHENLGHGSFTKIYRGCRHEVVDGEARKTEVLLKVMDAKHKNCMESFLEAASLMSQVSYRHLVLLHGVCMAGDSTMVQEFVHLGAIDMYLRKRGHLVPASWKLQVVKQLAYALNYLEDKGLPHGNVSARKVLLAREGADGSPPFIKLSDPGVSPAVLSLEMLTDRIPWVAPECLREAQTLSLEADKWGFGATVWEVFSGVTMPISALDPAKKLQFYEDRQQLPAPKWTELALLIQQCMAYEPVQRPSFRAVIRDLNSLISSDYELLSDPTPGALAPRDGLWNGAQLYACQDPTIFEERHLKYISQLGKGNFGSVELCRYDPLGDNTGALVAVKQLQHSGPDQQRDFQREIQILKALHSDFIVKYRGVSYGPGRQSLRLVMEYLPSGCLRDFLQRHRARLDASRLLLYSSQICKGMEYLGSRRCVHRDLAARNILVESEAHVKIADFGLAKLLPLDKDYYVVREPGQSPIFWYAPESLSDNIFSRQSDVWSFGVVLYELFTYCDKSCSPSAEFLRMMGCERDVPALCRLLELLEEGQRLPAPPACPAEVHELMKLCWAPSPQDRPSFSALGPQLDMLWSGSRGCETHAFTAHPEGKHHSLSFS", "UniProt Q96Q40, sequence (whole entry, looked up)": "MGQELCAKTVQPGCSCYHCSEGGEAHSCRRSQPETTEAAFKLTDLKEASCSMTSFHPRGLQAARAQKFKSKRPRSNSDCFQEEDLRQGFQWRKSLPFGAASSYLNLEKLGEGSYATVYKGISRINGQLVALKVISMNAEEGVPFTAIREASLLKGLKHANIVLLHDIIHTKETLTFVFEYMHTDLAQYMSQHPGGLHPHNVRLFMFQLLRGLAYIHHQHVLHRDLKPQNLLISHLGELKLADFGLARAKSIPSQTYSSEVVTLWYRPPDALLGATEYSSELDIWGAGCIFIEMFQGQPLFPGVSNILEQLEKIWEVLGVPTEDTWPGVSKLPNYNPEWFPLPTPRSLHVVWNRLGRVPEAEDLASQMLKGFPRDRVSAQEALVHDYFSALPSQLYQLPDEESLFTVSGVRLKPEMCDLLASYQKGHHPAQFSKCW", "UniProt Q96RR4, sequence (whole entry, looked up)": "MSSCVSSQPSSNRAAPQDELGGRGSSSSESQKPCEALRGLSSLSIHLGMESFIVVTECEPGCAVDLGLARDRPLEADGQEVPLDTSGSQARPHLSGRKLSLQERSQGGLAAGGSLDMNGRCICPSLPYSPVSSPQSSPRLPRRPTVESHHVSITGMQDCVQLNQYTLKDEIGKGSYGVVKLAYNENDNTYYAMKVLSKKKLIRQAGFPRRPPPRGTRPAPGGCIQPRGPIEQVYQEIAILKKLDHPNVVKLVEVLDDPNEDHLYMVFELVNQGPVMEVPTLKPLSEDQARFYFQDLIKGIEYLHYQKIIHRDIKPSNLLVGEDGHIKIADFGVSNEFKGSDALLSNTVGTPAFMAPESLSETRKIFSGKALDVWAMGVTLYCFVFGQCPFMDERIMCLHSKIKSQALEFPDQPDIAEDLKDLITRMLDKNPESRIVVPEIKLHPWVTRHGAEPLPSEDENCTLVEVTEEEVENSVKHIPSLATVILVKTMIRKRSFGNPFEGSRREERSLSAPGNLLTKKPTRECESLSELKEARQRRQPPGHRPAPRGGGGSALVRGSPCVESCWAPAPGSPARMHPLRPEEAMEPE", "UniProt Q9HC98, sequence (whole entry, looked up)": "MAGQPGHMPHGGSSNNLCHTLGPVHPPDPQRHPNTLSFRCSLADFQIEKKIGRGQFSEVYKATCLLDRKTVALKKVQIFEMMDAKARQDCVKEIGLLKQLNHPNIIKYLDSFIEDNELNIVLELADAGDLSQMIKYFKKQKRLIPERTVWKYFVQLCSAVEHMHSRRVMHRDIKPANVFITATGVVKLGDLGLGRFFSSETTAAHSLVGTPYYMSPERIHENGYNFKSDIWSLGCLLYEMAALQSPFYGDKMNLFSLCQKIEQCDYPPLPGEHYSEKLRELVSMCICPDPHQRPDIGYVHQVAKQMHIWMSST"}
{"data": "Sample 1", "Compound": "CC(=O)N1CCN(c2nc(OC[C@@H]3CCCN3C)nc3c2CCN(c2cccc4cccc(Cl)c24)C3)C[C@@H]1CC#N", "effect on": "binding", "action": "competitor", "technique": "NanoBRET", "cells": "HEK293", "KRAS Q61H": "GTPase KRas (KRAS, Homo sapiens, UniProt P01116, Q61H)"}
{"target": "GTPase KRas (KRAS, Homo sapiens, UniProt P01116, G12D)", "tested at": "5.08 nM", "normalized BRET": "97% and 92.2% and 102%"}
{"target": "GTPase KRas (KRAS, Homo sapiens, UniProt P01116, G13D)", "tested at": "33.3 µM", "normalized BRET": "5.17% and 6.36% and 8.9%"}
{"target": "KRAS Q61H", "tested at": "5.08 nM", "normalized BRET": "93.6% and 98.1% and 101%"}
{"target": "KRAS Q61H", "tested at": "15.2 nM", "normalized BRET": "89.8% and 94.3% and 101%"}
{"target": "KRAS Q61H", "tested at": "1.69 nM", "normalized BRET": "94.2% and 99.8% and 107%"}
{"target": "KRAS Q61H", "tested at": "137 nM", "normalized BRET": "86.1% and 96.8% and 85.2%"}
{"data": "Sample 2", "target": "DNA polymerase theta, ATPase domain (POLQ, Homo sapiens, UniProt O75417)", "effect on": "enzyme activity", "action": "inhibitor", "tested at": "77 µM", "reference": "untreated", "UniProt O75417, sequence (whole entry, unmodified, looked up)": "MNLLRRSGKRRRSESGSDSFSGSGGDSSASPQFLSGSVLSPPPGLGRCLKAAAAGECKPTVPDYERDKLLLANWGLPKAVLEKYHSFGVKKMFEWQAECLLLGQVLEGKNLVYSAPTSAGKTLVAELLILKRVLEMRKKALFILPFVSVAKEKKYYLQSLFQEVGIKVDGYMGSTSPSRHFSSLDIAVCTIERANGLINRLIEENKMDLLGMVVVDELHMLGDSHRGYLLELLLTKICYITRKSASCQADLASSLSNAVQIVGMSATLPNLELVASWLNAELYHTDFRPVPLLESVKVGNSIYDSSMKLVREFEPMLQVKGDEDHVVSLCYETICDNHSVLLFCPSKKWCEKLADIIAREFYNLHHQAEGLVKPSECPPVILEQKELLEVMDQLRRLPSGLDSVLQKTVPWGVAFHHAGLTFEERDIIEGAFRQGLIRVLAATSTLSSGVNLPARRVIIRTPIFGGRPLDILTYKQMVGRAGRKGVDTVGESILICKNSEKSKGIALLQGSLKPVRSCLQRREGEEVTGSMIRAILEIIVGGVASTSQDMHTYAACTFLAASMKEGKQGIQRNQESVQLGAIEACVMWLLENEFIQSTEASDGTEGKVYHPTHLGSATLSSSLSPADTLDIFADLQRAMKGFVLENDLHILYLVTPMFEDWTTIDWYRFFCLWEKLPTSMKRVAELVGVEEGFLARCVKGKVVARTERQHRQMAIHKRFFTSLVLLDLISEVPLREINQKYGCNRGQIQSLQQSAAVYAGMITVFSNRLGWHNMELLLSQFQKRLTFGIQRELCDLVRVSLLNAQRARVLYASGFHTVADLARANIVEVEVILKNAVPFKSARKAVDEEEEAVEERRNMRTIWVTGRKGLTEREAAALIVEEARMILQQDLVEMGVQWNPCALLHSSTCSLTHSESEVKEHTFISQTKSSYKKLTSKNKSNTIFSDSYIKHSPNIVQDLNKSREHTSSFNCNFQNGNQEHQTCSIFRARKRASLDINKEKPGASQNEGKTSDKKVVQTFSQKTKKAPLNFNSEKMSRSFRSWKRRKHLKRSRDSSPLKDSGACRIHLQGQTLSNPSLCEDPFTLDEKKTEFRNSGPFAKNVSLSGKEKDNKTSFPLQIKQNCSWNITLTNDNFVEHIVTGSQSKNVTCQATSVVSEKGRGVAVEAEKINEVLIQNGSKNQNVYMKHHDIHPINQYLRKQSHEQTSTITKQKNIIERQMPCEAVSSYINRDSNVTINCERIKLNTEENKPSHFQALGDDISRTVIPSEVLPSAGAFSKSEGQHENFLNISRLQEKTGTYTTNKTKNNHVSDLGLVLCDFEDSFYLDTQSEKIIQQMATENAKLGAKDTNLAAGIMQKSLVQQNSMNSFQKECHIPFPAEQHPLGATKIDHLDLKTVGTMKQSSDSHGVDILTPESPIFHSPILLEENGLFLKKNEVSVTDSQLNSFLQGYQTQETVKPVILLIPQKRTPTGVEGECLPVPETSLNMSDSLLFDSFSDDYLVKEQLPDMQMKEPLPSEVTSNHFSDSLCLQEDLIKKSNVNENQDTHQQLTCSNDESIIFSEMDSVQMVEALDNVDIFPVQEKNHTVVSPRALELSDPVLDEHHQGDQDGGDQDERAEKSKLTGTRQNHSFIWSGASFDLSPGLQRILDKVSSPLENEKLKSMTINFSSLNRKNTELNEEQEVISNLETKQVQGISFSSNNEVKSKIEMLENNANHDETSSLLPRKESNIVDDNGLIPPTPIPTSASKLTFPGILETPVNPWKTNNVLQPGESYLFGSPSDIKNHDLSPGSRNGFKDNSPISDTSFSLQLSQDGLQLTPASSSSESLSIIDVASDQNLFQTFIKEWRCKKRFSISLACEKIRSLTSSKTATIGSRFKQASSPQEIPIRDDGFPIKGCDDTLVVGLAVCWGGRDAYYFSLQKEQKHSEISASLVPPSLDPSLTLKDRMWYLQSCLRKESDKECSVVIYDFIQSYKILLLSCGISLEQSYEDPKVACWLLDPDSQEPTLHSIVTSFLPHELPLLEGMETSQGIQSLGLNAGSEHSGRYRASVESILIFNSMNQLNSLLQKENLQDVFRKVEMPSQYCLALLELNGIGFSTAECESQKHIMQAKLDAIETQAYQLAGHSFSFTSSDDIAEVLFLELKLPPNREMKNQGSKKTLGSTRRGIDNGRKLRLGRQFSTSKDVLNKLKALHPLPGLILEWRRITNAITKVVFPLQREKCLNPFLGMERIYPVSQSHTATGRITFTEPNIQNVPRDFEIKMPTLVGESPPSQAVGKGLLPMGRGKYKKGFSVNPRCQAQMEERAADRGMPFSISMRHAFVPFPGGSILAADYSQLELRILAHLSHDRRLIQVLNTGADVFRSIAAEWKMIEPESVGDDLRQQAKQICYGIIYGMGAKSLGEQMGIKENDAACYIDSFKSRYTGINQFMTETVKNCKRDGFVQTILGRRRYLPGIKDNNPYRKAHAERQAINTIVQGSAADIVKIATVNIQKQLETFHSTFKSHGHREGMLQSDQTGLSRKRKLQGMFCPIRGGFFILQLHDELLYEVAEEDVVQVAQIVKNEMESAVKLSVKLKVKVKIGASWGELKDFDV"}
{"SMILES": "CC(=O)OCOC(=O)CN(CC(=O)OCOC(C)=O)c1ccccc1OCCOc1ccccc1N(CC(=O)OCOC(C)=O)CC(=O)OCOC(C)=O", "remaining activity": "91.9%"}
{"SMILES": "CCN(CC)CCOC(=O)c1cc(Cl)c(N)cc1OC", "remaining activity": "97.5%"}
{"SMILES": "Cc1cccc(Nc2ccccc2C(=O)O)c1C", "remaining activity": "98.2%"}
{"SMILES": "C[C@H]1NC(=O)NC1=O", "remaining activity": "100%"}
{"SMILES": "CN1CCC(=C2c3ccccc3CCc3sccc32)CC1", "remaining activity": "101% and 102%"}
{"SMILES": "C[C@@H]1[C@H](O)[C@@H](C)/C=C/C=C/C=C/C=C/C=C/C=C/C=C/[C@H](O[C@@H]2O[C@H](C)[C@@H](O)[C@H](N)[C@@H]2O)C[C@@H]2O[C@](O)(C[C@@H](O)C[C@@H](O)[C@H](O)CC[C@@H](O)C[C@@H](O)CC(=O)O[C@H]1C)C[C@H](O)[C@H]2C(=O)O", "remaining activity": "88.6% and 90.8%"}
{"SMILES": "CN1C(C(=O)Nc2ccccn2)=C(O)c2sccc2S1(=O)=O", "remaining activity": "102% and 85.8%"}
{"SMILES": "O=C1c2cccc(O)c2C(=O)c2c(O)cc(CO)cc21", "remaining activity": "96.1%"}
{"data": "Sample 3", "SMILES": "CN([C@@H]1CCc2c(CC(=O)O)c3ccccc3n2C1)S(=O)(=O)c1ccc(F)cc1", "effect on": "cell-free assay", "technique": "competition with immobilised ligand", "tested at": "1 µM"}
{"target": "Calcium/calmodulin-dependent protein kinase kinase 2 (CAMKK2, Homo sapiens, UniProt Q96RR4)", "remaining binding": "100%"}
{"target": "Serine/threonine-protein kinase 38-like (STK38L, Homo sapiens, UniProt Q9Y2H1)", "remaining binding": "83%"}
{"target": "MAP kinase-interacting serine/threonine-protein kinase 1 (MKNK1, Homo sapiens, UniProt Q9BUB5)", "remaining binding": "93%"}
{"target": "Serine/threonine-protein kinase Nek6 (NEK6, Homo sapiens, UniProt Q9HC98)", "remaining binding": "99%"}
{"target": "Dual specificity protein kinase CLK2 (CLK2, Homo sapiens, UniProt P49760)", "remaining binding": "94%"}
{"target": "Calcium/calmodulin-dependent protein kinase type II subunit delta (CAMK2D, Homo sapiens, UniProt Q13557)", "remaining binding": "100%"}
{"target": "Cyclin-dependent kinase 2 (CDK2, Homo sapiens, UniProt P24941)", "remaining binding": "100%"}
{"target": "Tyrosine-protein kinase JAK3, JH1 (JAK3, Homo sapiens, UniProt P52333)", "remaining binding": "98%"}
{"target": "Macrophage colony-stimulating factor 1 receptor, autoinhibited (CSF1R, Homo sapiens, UniProt P07333)", "remaining binding": "100%"}
{"target": "Cyclin-dependent kinase 15 (CDK15, Homo sapiens, UniProt Q96Q40)", "remaining binding": "100%"}
{"data": "Sample 4", "target": "Tyrosine-protein kinase TXK (TXK, Homo sapiens, UniProt P42681)", "effect on": "enzyme activity", "action": "inhibitor", "tested at": "0.5 µM", "reference": "control", "Construct (P42681 1-527)": "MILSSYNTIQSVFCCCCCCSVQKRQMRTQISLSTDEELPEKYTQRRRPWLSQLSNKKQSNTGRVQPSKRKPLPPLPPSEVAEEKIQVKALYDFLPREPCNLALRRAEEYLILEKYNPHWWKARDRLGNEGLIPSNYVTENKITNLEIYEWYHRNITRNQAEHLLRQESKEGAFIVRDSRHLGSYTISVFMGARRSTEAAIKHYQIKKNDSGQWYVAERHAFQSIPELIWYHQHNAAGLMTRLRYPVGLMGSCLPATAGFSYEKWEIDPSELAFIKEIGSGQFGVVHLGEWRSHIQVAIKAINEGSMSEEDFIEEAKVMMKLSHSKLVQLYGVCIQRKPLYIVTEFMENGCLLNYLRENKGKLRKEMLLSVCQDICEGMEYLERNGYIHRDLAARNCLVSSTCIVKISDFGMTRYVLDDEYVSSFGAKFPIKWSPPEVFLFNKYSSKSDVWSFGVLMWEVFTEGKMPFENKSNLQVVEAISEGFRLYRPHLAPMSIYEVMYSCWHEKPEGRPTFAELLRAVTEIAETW"}
{"SMILES": "CNC(=O)c1cc(Oc2ccc(NC(=O)Nc3ccc(Cl)c(C(F)(F)F)c3)cc2)ccn1", "remaining activity": "106%"}
{"SMILES": "Nc1ncnc2n[nH]c(Nc3ccc(F)cc3)c12", "remaining activity": "67.6%"}
{"SMILES": "Cc1ccc(Nc2nccc(N(C)c3ccc4c(C)n(C)nc4c3)n2)cc1S(N)(=O)=O", "remaining activity": "40.2%"}
{"SMILES": "Cc1nc(-c2ccccc2)c(-c2ccncc2)o1", "remaining activity": "99.4%"}
{"SMILES": "NCCNc1ncc(C(N)=O)c(Nc2cccc(C(F)(F)F)c2)n1", "remaining activity": "85.2%"}
{"SMILES": "Cn1sc(=O)n(Cc2ccccc2)c1=O", "remaining activity": "99.8%"}
{"SMILES": "O=C1NC(=O)C(c2cn(CCCO)c3ncccc23)=C1c1cnccn1", "remaining activity": "75.3%"}
{"SMILES": "CO[C@H]1C[C@@H]2CC[C@@H](C)[C@@](O)(O2)C(=O)C(=O)N2CCCC[C@H]2C(=O)O[C@H]([C@H](C)C[C@@H]2CC[C@@H](O)[C@H](OC)C2)CC(=O)[C@H](C)/C=C(\\C)[C@@H](O)[C@@H](OC)C(=O)[C@H](C)C[C@H](C)/C=C/C=C/C=C/1C", "remaining activity": "105%"}
{"SMILES": "COc1ccc(CNC(=O)Nc2ncc([N+](=O)[O-])s2)cc1", "remaining activity": "96.9%"}
{"SMILES": "Cc1cccc(-c2[nH]c(C(C)(C)C)nc2-c2ccc3c(c2)OCO3)n1", "remaining activity": "100%"}
{"SMILES": "O=C(O)c1ccc2c3c1cccc3c(=O)n1c3ccccc3nc21", "remaining activity": "102%"}
{"SMILES": "O=c1c2ccccc2[nH]c(=S)n1CCN1CCC(=C(c2ccc(F)cc2)c2ccc(F)cc2)CC1", "remaining activity": "100%"}
{"SMILES": "O=C(Nc1cccc(Nc2cc(Nc3cccc(C(F)(F)F)c3)ncn2)c1)C1CC1", "remaining activity": "97.1%"}
{"SMILES": "C#Cc1cccc(Nc2ncnc3cc(OCCOC)c(OCCOC)cc23)c1", "remaining activity": "88.5%"}
{"SMILES": "O=C1NC(=O)C(c2cn(CCCn3ccnc3)c3ccccc23)=C1Nc1ccccc1", "remaining activity": "95.3%"}
